Results from different studies.
A part holds a random share of what one study measured. Positions count from the first letter of the parent shown.

Sample 1
Substitution: R45N
Target: ABI1, truncated, D143A, DHFR fusion (Arabidopsis thaliana)
Technique: DHFR PCA, deep sequencing
Sample: yeast
Notes: methotrexate growth selection, single substitutions
Relative to: wild-type fitted maximum
Reading: higher = stronger binding
Starting sequence: PYL1, truncated, DHFR fusion (Arabidopsis thaliana); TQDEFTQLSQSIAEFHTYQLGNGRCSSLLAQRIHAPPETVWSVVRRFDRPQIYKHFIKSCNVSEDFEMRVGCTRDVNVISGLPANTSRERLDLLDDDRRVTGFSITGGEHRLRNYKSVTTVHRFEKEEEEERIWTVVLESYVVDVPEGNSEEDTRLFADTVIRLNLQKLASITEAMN; partner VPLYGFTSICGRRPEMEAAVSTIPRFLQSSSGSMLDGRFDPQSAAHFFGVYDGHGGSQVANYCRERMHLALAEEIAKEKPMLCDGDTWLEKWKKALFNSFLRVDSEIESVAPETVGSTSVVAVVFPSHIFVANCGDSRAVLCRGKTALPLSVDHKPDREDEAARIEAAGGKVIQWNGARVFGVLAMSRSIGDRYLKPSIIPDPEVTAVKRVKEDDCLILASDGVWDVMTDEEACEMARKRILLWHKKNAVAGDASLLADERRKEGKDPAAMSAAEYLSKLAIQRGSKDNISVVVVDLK
For added: (+)-ABA 0.11 µM: “relative binding score” read -1.23%.
The “relative binding score” was 81.9% (added: (+)-ABA 2500 µM).
The “relative binding score” was -8.66% (added: (+)-ABA 1.4 µM).
It gave -6.57% for “relative binding score” (added: (+)-ABA 0.032 µM).
For added: (+)-ABA 0.0091 µM: “relative binding score” read -1.04%.
The “relative binding score” was -7.6% (added: (+)-ABA 17 µM).

Sample 2
Target: Sal-like protein 4, full length isoform A (SALL4, Homo sapiens, UniProt Q9UJQ4, residues 1-1053)
UniProt Q9UJQ4, sequence (whole entry, looked up): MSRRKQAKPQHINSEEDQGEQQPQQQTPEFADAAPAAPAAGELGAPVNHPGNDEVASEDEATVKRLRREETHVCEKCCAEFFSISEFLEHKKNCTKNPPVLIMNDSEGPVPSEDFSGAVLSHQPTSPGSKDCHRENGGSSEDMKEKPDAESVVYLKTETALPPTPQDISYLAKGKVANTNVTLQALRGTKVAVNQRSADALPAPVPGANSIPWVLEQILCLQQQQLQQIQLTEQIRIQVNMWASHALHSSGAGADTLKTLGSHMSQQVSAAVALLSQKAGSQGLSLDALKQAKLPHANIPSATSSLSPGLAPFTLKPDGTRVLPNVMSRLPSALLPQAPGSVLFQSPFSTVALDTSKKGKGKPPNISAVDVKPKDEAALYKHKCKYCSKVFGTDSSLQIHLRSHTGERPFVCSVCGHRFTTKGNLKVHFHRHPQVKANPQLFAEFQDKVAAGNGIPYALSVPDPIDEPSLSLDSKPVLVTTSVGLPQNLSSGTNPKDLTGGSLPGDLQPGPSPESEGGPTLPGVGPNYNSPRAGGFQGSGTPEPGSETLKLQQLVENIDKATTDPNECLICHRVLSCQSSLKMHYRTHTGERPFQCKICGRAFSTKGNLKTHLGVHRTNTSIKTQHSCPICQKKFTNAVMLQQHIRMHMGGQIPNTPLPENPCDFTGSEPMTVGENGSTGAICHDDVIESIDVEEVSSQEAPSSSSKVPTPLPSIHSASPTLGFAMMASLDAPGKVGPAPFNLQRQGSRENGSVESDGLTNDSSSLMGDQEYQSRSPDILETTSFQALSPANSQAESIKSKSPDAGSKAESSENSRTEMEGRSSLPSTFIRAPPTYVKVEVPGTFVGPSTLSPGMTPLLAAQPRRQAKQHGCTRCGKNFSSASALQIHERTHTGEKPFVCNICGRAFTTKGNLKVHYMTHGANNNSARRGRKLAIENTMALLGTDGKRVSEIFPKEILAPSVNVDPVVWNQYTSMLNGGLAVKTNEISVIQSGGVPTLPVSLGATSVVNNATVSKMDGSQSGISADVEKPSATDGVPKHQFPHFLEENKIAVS
Technique: universal PBM
Form: double-stranded DNA, one strand shown
Sample: in vitro
Concentration: 600 nM
Notes: 8-mer, flanks averaged, mean of replicates
Reading: higher = stronger binding
With `GTTCGCAA` the E-score was 0.114.
With `GGTGCCGA` the E-score was -0.21.
`CGGCAGGC` has an E-score of -0.333.
For `GGATTGCC`, the E-score was -0.305.
`ATATGCTC` has an E-score of 0.144.
`ACCGTGCC` gave an E-score of -0.114.
The E-score of `ACCGCCTG` is reported as -0.317.
`CTAAGCTC` has an E-score of -0.136.

Sample 3
Target: Ras GTPase-activating protein-binding protein 1, RRM domain (G3BP1, Homo sapiens, UniProt Q13283)
UniProt Q13283, sequence (whole entry, looked up): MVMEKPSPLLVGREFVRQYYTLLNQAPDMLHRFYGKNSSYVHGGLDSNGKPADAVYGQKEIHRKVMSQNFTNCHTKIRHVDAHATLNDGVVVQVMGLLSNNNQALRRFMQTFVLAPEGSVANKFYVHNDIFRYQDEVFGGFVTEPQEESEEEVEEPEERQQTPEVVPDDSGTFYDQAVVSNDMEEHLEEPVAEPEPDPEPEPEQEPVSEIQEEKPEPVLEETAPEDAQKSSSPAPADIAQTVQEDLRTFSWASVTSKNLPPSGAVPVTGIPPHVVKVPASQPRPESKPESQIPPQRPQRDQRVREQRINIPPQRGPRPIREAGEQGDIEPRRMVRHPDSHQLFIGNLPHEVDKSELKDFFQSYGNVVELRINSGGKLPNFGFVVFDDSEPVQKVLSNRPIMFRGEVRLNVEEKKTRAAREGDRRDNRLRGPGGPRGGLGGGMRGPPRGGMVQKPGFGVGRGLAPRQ
Technique: RNA Bind-n-Seq
Form: RNA
Sample: in vitro
Concentration: 1 µM
Notes: whole 134-nt RNA, ends assumed
Added: 150 mM KCl
Relative to: input library
Reading: higher = stronger binding
`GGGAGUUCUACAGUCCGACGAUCUCCUGUGCUACACAUCGUAUGUACCGAAUCGGUUUUUUUGGAAAAAAAGGAAAAAAAGGAAAGUAUUAUGUUACGCCGUUCGGAUCUGCAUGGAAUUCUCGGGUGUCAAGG` has a log2 enrichment of -0.142.
With `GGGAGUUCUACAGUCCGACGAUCGUCCUGUGCUACACAUCGUAUGUACCGAAUCGGGGAAAAAAAGGGGUUUGGGGAGGGGAAAGUAUUAUGUUACGCCGUUCGGAUCUGCACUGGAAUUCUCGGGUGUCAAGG` the log2 enrichment was 1.23.
`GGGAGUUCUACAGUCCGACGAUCUCCUGUGCUACACAUCGUAUGUACCGAAUCGGGCCCCCCGGGCCCCCCGGCCCCCCGGGGAAAGUAUUAUGUUACGCCGUUCGGAUCUGCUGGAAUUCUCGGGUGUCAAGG` gave a log2 enrichment of -0.515.
For `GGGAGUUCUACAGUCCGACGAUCAAGUCCUGUGCUACACAUCGUAUGUACCGAAUCGGAAAAAGGUUUGGAAAAAAAGGAAAGUAUUAUGUUACGCCGUUCGGAUCUGCACUUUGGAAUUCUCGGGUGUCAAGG`, the log2 enrichment was -0.193.
The log2 enrichment of `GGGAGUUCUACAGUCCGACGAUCCAAGUCCUGUGCUACACAUCGUAUGUACCGAAUCGGCCCCGGCCCCGGCCCCGGGAAAGUAUUAUGUUACGCCGUUCGGAUCUGCACUUCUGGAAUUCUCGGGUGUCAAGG` is reported as -1.43.
`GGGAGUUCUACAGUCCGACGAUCCAAGUCCUGUGCUACACAUCGUAUGUACCGAAUCGGGAAAAAGGGAGGGAAAGGGAAAGUAUUAUGUUACGCCGUUCGGAUCUGCACUUCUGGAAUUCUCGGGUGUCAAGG` gave a log2 enrichment of 0.827.
With `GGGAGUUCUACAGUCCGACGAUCUAACUUUAGAGGAGGAUCUGUUGGAUAUGGCAGUGGACGUGGAUUUGGGGAUGGCUAUAAUGGGUAUGGAGGAGGACCUGGAGGUGGCAAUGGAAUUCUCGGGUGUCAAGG` the log2 enrichment was -0.518.
With `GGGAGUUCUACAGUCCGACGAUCUGUGCUACACAUCGUAUGUACCGAAUCGGGGUUUUUUUGGGGAAAAAGGGGAAAAAAAGGGGAAAGUAUUAUGUUACGCCGUUCGGAUCUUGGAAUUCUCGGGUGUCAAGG` the log2 enrichment was 0.856.

Further values, each from its own experiment
Starting sequence: viral docking peptide; KKAKRRLFTISDS; partner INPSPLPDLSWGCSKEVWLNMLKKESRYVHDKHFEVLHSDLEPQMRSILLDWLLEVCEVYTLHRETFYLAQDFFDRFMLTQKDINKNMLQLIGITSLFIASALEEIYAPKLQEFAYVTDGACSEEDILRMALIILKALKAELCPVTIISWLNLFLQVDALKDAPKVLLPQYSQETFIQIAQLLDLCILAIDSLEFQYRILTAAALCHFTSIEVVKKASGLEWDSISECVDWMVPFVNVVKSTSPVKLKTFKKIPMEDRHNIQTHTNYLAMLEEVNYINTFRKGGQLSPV
`KKAKRALFTISDS [R6A]`: “normalised enrichment score” 1.82 (CCNE2, cyclin fold, Cln2 fusion (human); yeast growth competition, sequencing; yeast; strong parent motif; relative to: not given, higher = stronger binding).

For quick reference, copied from above (sample 3):
With `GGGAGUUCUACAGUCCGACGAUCUAACUUUAGAGGAGGAUCUGUUGGAUAUGGCAGUGGACGUGGAUUUGGGGAUGGCUAUAAUGGGUAUGGAGGAGGACCUGGAGGUGGCAAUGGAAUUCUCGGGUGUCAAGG` the log2 enrichment was -0.518.
